Experimental data pooled from the literature.
Protocols differ between the studies behind these lines. Numbers after ± are the reported error.

SMILES | system | conditions | tissue uptake
CCCC[C@H](NC(=O)CNC(=O)[C@H](CO)NC(=O)CNC(=O)c1ccc(NN)nc1)C(=O)N[C@H]1CC(=O)NCCCC[C@@H](C(N)=O)NC(=O)[C@H](Cc2c[nH]c3ccccc23)NC(=O)[C@H](CCCNC(=N)N)NC(=O)[C@@H](Cc2ccccc2)NC(=O)[C@H](Cc2c[nH]cn2)NC1=O [technetium-99m labelled] | C57 mouse, B16/F1 melanoma, urine | intravenous, 0.037 MBq, 2 h | 95.25 ± 0.52 %ID
N=C(N)NCCC[C@@H]1NC(=O)[C@H](CC(=O)NC23CNCCNCC(N)(CNCCNC2)CNCCNC3)NC(=O)[C@@H](Cc2ccccc2)NC(=O)[C@H](CC(=O)O)NC(=O)CNC1=O [copper-64 labelled] | Nu/Nu mouse, male, tumour-bearing, bone | intravenous, 10 µCi, 2 h | 0.46 ± 0.22 %ID/g
CCCC[C@H](NC(=O)CNC(=O)CNC(=O)c1ccc(NN)nc1)C(=O)N[C@H]1CC(=O)NCCCC[C@@H](C(N)=O)NC(=O)[C@H](Cc2c[nH]c3ccccc23)NC(=O)[C@H](CCCNC(=N)N)NC(=O)[C@@H](Cc2ccccc2)NC(=O)[C@H](Cc2c[nH]cn2)NC1=O [technetium-99m labelled] | C57 mouse, B16/F1 melanoma-bearing, spleen | intravenous, 24 h | 0.05 ± 0.03 %ID/g
CSCC[C@H](NC(=O)[C@H](CC(C)C)NC(=O)[C@H](Cc1c[nH]cn1)NC(=O)CNC(=O)[C@@H](NC(=O)[C@H](C)NC(=O)[C@H](Cc1c[nH]c2ccccc12)NC(=O)[C@H](CCC(N)=O)NC(=O)CCCCCNC(=O)CNC(=O)CNC(=O)CNC(=O)CSC(C)=O)C(C)C)C(N)=O [technetium-99m labelled] | healthy Swiss mouse, large intestine, contents removed | intravenous, 18.5 MBq, 5 min | 4.17 ± 0.77 %ID/g
CSCC[C@H](NC(=O)[C@H](CC(C)C)NC(=O)[C@H](Cc1c[nH]cn1)NC(=O)CNC(=O)[C@@H](NC(=O)[C@H](C)NC(=O)[C@H](Cc1c[nH]c2ccccc12)NC(=O)[C@H](CCC(N)=O)NC(=O)[C@H](CC(N)=O)NC(=O)CNC(=O)[C@H](Cc1ccc(O)cc1)NC(=O)[C@H](CCCNC(=N)N)NC(=O)[C@H](CCC(N)=O)NC(=O)[C@@H]1CCCN1C(=O)CN1CCN(CC(=O)O)CCN(CC(=O)O)CCN(CC(=O)O)CC1)C(C)C)C(N)=O [indium-111 labelled] | Swiss nu/nu mouse, male, PC-3 tumour xenograft, tumour | intravenous, 10 pmol, 24 h | 0.7 ± 0.4 %ID/g
N=C(N)NCCC[C@H](NC(=O)[C@H](CCCCN)NC(=O)[C@H](CCC(N)=O)NC(=O)CCOCCOCCOCCNC(=O)CN1CCN(CC(=O)O)CCN(CC(=O)O)CCN(CC(=O)O)CC1)C(=O)N[C@@H](CCCCN)C(=O)N[C@@H](CCCNC(=N)N)C(=O)N[C@@H](CCCCN)C(=O)N[C@@H](CCCCN)C(=O)N[C@@H](CO)C(=O)N[C@@H](CCCNC(=N)N)C(=O)N[C@@H](Cc1ccc(O)cc1)C(=O)N[C@@H](CCCCN)C(=O)N[C@@H](CO)C(=O)O [copper-64 labelled] | C57BL/6 Jms mouse, male, B16-F10 melanoma, intestinal lymph node | intravenous, 60 min | 1.52 ± 0.72 %ID/g
N=C(N)NCCC[C@@H]1NC(=O)[C@H](CCCCNC(=O)CCOCCOCCOCCOCCNC(=O)CC[C@H](NC(=O)CCOCCOCCOCCOCCNC(=O)[C@H](CCCCNC(=O)c2ccc(NN)nc2)NC(=O)c2ccc(NN)nc2)C(=O)NCCOCCOCCOCCOCCC(=O)NCCCC[C@@H]2NC(=O)[C@@H](Cc3ccccc3)NC(=O)[C@H](CC(=O)O)NC(=O)CNC(=O)[C@H](CCCNC(=N)N)NC2=O)NC(=O)[C@@H](Cc2ccccc2)NC(=O)[C@H](CC(=O)O)NC(=O)CNC1=O [technetium-99m labelled] | athymic nude mouse, female, U-87 MG xenograft, tumor | intravenous, 0.1 MBq, 1 h | 8.59 ± 1.52 %ID/g
N=C(N)NCCC[C@@H]1NC(=O)[C@H](CCCCNC(=O)CNC(=O)CNC(=O)CNC(=O)CC[C@H](NC(=O)CNC(=O)CNC(=O)CNC(=O)c2ccc(NN=Cc3ccccc3S(=O)(=O)O)nc2)C(=O)NCC(=O)NCC(=O)NCC(=O)NCCCC[C@@H]2NC(=O)[C@@H](Cc3ccccc3)NC(=O)[C@H](CC(=O)O)NC(=O)CNC(=O)[C@H](CCCNC(=N)N)NC2=O)NC(=O)[C@@H](Cc2ccccc2)NC(=O)[C@H](CC(=O)O)NC(=O)CNC1=O [technetium-99m labelled] | athymic nu/nu mouse, female, MDA-MB-435 xenograft, kidney | intravenous, 120 min | 8.01 ± 0.68 %ID/g
CCCC[C@H](NC(=O)CCCCCCCNC(=O)c1ccc(NN)nc1)C(=O)N[C@H]1CC(=O)NCCCC[C@@H](C(N)=O)NC(=O)[C@H](Cc2c[nH]c3ccccc23)NC(=O)[C@H](CCCNC(=N)N)NC(=O)[C@@H](Cc2ccccc2)NC(=O)[C@H](Cc2c[nH]cn2)NC1=O [technetium-99m labelled] | C57 mouse, B16/F1 melanoma, spleen | 2 h, added: NDP-MSH 10 µg (6.07 nmol) co-injected | 0.17 ± 0.11 %ID/g

Excerpt of the above:
SMILES | system | conditions | tissue uptake
N=C(N)NCCC[C@@H]1NC(=O)[C@H](CCCCNC(=O)CNC(=O)CNC(=O)CNC(=O)CC[C@H](NC(=O)CNC(=O)CNC(=O)CNC(=O)c2ccc(NN=Cc3ccccc3S(=O)(=O)O)nc2)C(=O)NCC(=O)NCC(=O)NCC(=O)NCCCC[C@@H]2NC(=O)[C@@H](Cc3ccccc3)NC(=O)[C@H](CC(=O)O)NC(=O)CNC(=O)[C@H](CCCNC(=N)N)NC2=O)NC(=O)[C@@H](Cc2ccccc2)NC(=O)[C@H](CC(=O)O)NC(=O)CNC1=O [technetium-99m labelled] | athymic nu/nu mouse, female, MDA-MB-435 xenograft, kidney | intravenous, 120 min | 8.01 ± 0.68 %ID/g
